Assay results gathered from unrelated publications.
Compare with care: the assays were run in different laboratories. “And” joins repeats or separate records; there may be more than shown. ± gives the spread as reported.

SMILES = COc1ccccc1-c1n[nH]c2nc(NC3CCN(C(=O)Cc4ccc(F)cc4F)CC3)ncc12; test = bead binding, competition bead pull-down, measured: LINJ.32.2780; test system = Leishmania donovani axenic amastigote extract; conditions = 10 µM; scale = relative to: vehicle; quantity = relative abundance; value = 0.92
SMILES = O=C1NC2(CC2)COc2ncc(F)cc2[C@H]2COCCN2c2ccn3ncc1c3n2; test system = Sprague-Dawley rat, female, kidneys; conditions = oral, 10 mg/kg/day, 4 weeks dosing, end of recovery; quantity = organ-to-body weight ratio; value = 0.675 ± 0.056%
SMILES = Cc1cc(Oc2nc(N3CC[C@@H](c4ccncc4)C3)ncc2F)[nH]n1; tested on = Mycobacterium tuberculosis; test system = THP-1, H37Rv non-replicating; conditions = 0.03002 µM, day 4; quantity = normalised growth; value = 5.66% and -3.77%
SMILES = Cc1ccc(-c2nc3ccc(C)cn3c2CC(=O)NCc2ccc(N(C)C)cc2)cc1; tested on = Mycobacterium avium; test = microbial growth; conditions = 6 days; quantity = MIC; value = > 50 µM
SMILES = CC(C)(C)C(=O)OCOP(=O)(OCOC(=O)C(C)(C)C)C1CCCN(O)C1=O (stereo not drawn); tested on = CAKI-1; quantity = GI50; value = 324 nM
SMILES = Cc1cc(C(=O)Nc2nc3cccc(C)c3n2[C@H]2CCCCN(C(=O)/C=C/CN(C)C)C2)ccn1; tested on = Trypanosoma brucei; test = cell growth, Alamar Blue; test system = 2T1 overexpressing Tb927.10.4940; scale = relative to: parental 2T1; quantity = EC50 fold shift; value = 0.5 fold and 0.81 fold
SMILES = Cc1ccc2nc(C)c(CC(=O)NCc3ccc(N(C)C)cc3)n2c1; tested on = Mycobacterium avium; test = microbial growth; conditions = 6 days; quantity = MIC; value = > 50 µM
SMILES = CN[C@@H]1[C@H](O)[C@H](NC)[C@H]2O[C@]3(O)[C@H](O[C@@H]2[C@H]1O)O[C@H](C)C[C@H]3NC(=O)Cc1cscn1; tested on = Mycobacteroides abscessus; test = microbial growth; test system = ATCC19977; quantity = MIC; value = 50 µg/mL
SMILES = COc1ccccc1-c1n[nH]c2nc(N[C@H]3CC[C@H](NS(=O)(=O)CC(C)C)CC3)ncc12; test = bead binding, competition bead pull-down, measured: LINJ.35.2790; test system = Leishmania donovani extract; conditions = 10 µM; scale = relative to: vehicle; quantity = relative abundance; value = 0.87
SMILES = CCc1ccn2c(C(=O)NCc3ccc(C)cc3)c(C)nc2c1; tested on = Mycobacteroides abscessus; test system = ATCC 19977; conditions = 72 h; quantity = MIC; value = > 50 µM
SMILES = O=C(NNc1ccccc1)c1nnc(C23CC4CC(CC(C4)C2)C3)o1; tested on = Fusarium graminearum; test = fungal growth, inhibitor; conditions = 50 µg/mL; quantity = inhibition; value = 54.2 ± 2.6%
SMILES = CN[C@@H]1[C@H](O)[C@H](NC)[C@H]2O[C@]3(O)[C@H](O[C@@H]2[C@H]1O)O[C@H](C)C[C@H]3NC(=O)Cc1ccccn1; tested on = Streptococcus pyogenes; test = microbial growth, broth dilution; test system = ATCC700294; quantity = MIC; value = 50 µg/mL
SMILES = Cc1ccc2nc(C)c(C(=O)C(=O)N(C)C)n2c1; tested on = Mycobacterium kansasii; test = microbial growth; conditions = 6 days; quantity = MIC; value = > 128 µM
SMILES = CC(C)CC(C(=O)N1CC2(CC1C#N)C(=O)Nc1ccccc12)N(C)C(=O)c1cc2c(F)cc(F)c(F)c2[nH]1 (stereo not drawn); tested on = Human coronavirus 229E; test = cytopathic effect; test system = MRC5; conditions = 1.99 nM; quantity = inhibition; value = 42.1%
SMILES = CN[C@@H]1[C@H](O)[C@H](NC)[C@H]2O[C@]3(O)[C@H](O[C@@H]2[C@H]1O)O[C@H](C)C[C@H]3NC(=O)Cc1cc(Cl)ccn1; tested on = Mycobacteroides abscessus; test = microbial growth; test system = ATCC19977; quantity = MIC; value = 25 to 50 µg/mL
SMILES = O=C(NNc1ccc(Cl)cc1)c1nnc(CC23CC4CC(CC(C4)C2)C3)o1; tested on = Fusarium graminearum; test = fungal growth, inhibitor; conditions = 50 µg/mL; quantity = inhibition; value = 100%
SMILES = CN[C@@H]1[C@H](O)[C@H](NC)[C@H]2O[C@]3(O)[C@H](O[C@@H]2[C@H]1O)O[C@H](C)C[C@H]3NC(=O)Cc1ccc(Cl)cn1; tested on = Streptococcus pyogenes; test = microbial growth, broth dilution; test system = ATCC700294; quantity = MIC; value = 25 µg/mL
SMILES = O=C(O)C(Cl)Cl.OCCN(CCO)CCO; tested on = Eclipta prostrata; conditions = 15 mg/mL, 21 days, post-emergence, greenhouse; quantity = herbicidal inhibition; value = -30%
